# Experimental data collected from several papers.
# A part holds a random share of what one study measured. Positions count from the first letter of the parent shown.

# Block 1 — target: CCNB3, cyclin fold, Cln2 fusion (human); technique: yeast growth competition, sequencing; sample: yeast; notes: weak parent motif; baseline: not given; reading: higher = stronger binding
# Parent: SLBP docking peptide (human); ARYKRKLLINDFG
Change,normalised enrichment score
ARYKRKLLIEDFG [N10E],0.378
ARYKRKLHINDFG [L8H],-0.0558
ARYKRKLLINDRG [F12R],0.28
ARYKRKLLCNDFG [I9C],0.283
ARLKRKLLINDFG [Y3L],0.47
ARYKRQLLINDFG [K6Q],0.556
ARYKRKLLINDFN [G13N],-0.307
RRYKRKLLINDFG [A1R],-0.0803
ARYKRKHLINDFG [L7H],0.233

# Block 2 — technique: universal PBM; molecule type: double-stranded DNA, one strand shown; sample: in vitro; tested at: 600 nM; reading: higher = stronger binding
# Target: Sal-like protein 4, full length isoform A (SALL4, Homo sapiens, UniProt Q9UJQ4, residues 1-1053)
# Chain of UniProt Q9UJQ4 (whole entry, looked up): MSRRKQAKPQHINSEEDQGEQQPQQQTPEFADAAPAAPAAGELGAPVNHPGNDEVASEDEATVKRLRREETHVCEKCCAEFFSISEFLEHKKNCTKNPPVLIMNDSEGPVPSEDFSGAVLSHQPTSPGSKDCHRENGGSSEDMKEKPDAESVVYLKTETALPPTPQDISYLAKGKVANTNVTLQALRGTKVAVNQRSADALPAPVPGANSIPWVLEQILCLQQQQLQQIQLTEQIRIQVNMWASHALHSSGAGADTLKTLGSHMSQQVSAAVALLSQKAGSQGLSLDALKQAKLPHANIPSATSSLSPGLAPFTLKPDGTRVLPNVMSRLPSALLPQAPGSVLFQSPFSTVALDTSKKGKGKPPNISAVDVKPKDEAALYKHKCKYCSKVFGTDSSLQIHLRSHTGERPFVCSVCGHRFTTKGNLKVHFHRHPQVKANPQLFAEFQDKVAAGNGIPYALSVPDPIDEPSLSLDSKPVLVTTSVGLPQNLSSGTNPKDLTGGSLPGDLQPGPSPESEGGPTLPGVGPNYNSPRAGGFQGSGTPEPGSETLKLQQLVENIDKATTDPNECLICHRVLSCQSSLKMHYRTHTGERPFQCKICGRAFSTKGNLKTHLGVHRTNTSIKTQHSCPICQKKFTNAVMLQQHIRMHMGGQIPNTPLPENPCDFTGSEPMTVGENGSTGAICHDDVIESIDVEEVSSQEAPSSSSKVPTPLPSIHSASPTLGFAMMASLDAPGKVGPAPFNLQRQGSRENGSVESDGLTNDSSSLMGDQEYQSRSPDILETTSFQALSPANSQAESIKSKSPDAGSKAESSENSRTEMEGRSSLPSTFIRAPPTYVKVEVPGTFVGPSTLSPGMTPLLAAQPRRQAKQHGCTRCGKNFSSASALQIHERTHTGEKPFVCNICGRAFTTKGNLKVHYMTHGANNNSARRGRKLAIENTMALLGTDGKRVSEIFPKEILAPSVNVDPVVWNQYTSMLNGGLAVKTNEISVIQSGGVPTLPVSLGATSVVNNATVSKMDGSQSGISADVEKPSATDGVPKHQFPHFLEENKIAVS
# Notes: 8-mer, flanks averaged, mean of replicates
Sequence,E-score
ATAAGTAA,0.384
AAGTTTGA,0.143
ATTCCTCG,-0.0344
CGGCACAC,-0.211
AGAACACT,0.0202
CACCTAAC,-0.0712
CACAGCTG,-0.254
ATCTAAAT,0.3
ATCTTGGA,0.0943
GATTCACC,-0.154
ACTACAGG,-0.000765
CGGCAAGA,-0.113
GATTATAA,0.347

# Block 3 — technique: RNA Bind-n-Seq; molecule type: RNA; sample: in vitro; tested at: 365 nM; baseline: no-protein control; reading: higher = stronger binding
# Target: RNA binding protein fox-1 homolog 2, RRM domain, GST-SBP tag (RBFOX2, Homo sapiens, UniProt O43251-10, residues 100-194)
# Notes: natural RNA segment, single round, ends assumed
# Shared flanks, not repeated: GGGAGUUCUACAGUCCGACGAUC … UGGAAUUCUCGGGUGCCAA
# Target sequence (chain): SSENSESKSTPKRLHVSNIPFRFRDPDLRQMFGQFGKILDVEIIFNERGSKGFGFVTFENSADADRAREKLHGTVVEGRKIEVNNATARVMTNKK
Sequence,RBNS enrichment (R)
GAGGACAGGCAUCAAGUUCUUAGCCUCUGUAGCUCUUAGCUUUCCCAUCUUUCCCUGCAAGGCCACACCGUGCAUUUACAGCAGUGUGGCAAGGUGUAGGAGGGACCUUG,0.832
ACCUAGUUUUCAUUGUUGACAAGUGAGGCCAGGCUUCCACUCGACCAAAAGCUAAGGAUUGCCACCCAGCAUUCCAAGCAGACUUGUUUCCUAAAAGCAUCCUUCAUCUG,0.42
UUCCCACUGCAGUGGACCUACUCGGCUUCCUCCCACUGCAAUCCAUUGCCUCUCAGCAUUCCGGCCUAAGUUGCGCCCUCCCAGUAUCAGCUCUGAAAGUCUAGGAAUAG,0.521
AGCAGCAGCGCCCCCUGCUCUCCUGUGCCUCAGCCCUUCUUAUGUUCCCUGAUGUCACACCCCACUUCCCGUCUCCCUGCACCCUGGGGCUUGAGACUGGUGUCUGUUUC,0.768
GCUCAAACCAUUAAGGGUUAAAAAUACAUCUUAAACAUUGGAAAGCUCUUCUAGCUGAAUCUGAAAUAUUACCCCUUGUCUAGAAAAAGGGGGGCAGUCAGAACAGCUGU,0.333
CCCAUAUUUUGGUACCAGUUUCUCCUCAUGAAAUGCAGUCCCUGGAUUCUGUGCCAUCUGAACAUGCUCUCCUGUUGGUGUGUAUGUCACUAGGGCAGUGGGGAGACGUC,0.359
UUAGGAUUUUACGUUAUUGUUAUUAUGGAAAGUGAUUGUGAUGCUAUUUAUCUUCAGGGUCACUCUGGGCAAAGAGAAGGUCCUCAGCCAUGCCCCCAGCACCUUGCACA,3.71
UGGUGUAAAAGGGUCCCUGGUUUCCCUAUCAGCUAUAAUUUUUAUAUUUAGAAACUCAAAAUCAUGUCCUCUUCCACCGGCAGCAAUAUAGUGGAGAAACCAGAAAGAAA,0.486

# Mixed results
Molecule,target,test,system,conditions,how to read,endpoint,result
"PhoQ, residues 284 288 289 292 302 303 SSCLAV","PhoP, residues 12 14 15 18 19 TQAIL (Escherichia coli, UniProt P23836)","Sort-seq, refers to: YFP reporter",E. coli,"PhoQ-PhoP variant library, added: 10 µM Mg2+","baseline: high Mg2+ state, higher = stronger signaling",fold induction,8.18

# A few entries again (block 1):
Change,normalised enrichment score
ARYKRKLLCNDFG [I9C],0.283
ARYKRKLLIEDFG [N10E],0.378
